Measurements from different studies.
Every numbered part comes from another study and shows a few of its results, in no order.
Sequence of UniProt Q9Y6M4 (whole entry, looked up): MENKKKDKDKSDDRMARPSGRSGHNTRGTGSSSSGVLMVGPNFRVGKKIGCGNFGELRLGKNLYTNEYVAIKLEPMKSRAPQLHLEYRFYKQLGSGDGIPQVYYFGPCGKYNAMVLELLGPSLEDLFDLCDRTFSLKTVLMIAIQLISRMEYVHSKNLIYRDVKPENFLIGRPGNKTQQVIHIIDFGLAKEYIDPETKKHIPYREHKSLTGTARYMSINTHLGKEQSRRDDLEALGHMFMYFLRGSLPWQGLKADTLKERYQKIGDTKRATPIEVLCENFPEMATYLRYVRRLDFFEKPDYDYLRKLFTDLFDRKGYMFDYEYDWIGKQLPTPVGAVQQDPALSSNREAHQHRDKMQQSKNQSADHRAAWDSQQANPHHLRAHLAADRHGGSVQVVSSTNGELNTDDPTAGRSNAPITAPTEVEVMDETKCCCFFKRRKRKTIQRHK
Sequence of UniProt Q9UL54 (whole entry, looked up): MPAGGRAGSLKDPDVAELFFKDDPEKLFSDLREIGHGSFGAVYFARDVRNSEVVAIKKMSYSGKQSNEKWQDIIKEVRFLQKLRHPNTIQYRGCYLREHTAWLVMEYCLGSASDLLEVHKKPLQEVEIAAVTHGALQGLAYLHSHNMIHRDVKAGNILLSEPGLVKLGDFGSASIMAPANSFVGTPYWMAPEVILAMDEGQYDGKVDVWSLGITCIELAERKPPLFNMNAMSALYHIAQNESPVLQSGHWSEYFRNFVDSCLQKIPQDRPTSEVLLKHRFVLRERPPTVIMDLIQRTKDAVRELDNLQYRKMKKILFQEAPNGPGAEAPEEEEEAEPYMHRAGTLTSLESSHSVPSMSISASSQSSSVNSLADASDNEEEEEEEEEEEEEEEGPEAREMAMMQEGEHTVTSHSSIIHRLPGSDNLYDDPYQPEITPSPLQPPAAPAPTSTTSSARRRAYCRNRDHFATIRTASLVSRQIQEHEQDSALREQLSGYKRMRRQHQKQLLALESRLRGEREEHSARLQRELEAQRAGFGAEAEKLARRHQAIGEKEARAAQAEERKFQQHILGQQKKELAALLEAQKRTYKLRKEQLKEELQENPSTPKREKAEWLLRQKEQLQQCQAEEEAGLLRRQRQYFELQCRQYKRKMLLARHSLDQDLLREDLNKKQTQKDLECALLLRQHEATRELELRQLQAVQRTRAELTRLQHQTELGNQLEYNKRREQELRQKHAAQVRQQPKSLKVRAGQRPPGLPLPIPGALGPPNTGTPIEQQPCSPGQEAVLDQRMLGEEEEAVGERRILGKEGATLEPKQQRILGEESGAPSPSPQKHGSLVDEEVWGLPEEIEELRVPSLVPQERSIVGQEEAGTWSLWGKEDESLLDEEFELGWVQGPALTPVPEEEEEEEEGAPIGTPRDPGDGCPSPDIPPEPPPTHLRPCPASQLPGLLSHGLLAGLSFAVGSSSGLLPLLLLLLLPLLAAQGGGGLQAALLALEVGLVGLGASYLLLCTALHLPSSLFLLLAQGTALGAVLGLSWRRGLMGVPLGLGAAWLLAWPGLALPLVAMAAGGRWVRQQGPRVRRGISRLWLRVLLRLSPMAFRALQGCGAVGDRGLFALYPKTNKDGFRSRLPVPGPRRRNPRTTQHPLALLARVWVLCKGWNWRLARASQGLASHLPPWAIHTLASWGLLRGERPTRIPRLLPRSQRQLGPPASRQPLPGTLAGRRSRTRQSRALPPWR
Sequence of UniProt P25101 (whole entry, looked up): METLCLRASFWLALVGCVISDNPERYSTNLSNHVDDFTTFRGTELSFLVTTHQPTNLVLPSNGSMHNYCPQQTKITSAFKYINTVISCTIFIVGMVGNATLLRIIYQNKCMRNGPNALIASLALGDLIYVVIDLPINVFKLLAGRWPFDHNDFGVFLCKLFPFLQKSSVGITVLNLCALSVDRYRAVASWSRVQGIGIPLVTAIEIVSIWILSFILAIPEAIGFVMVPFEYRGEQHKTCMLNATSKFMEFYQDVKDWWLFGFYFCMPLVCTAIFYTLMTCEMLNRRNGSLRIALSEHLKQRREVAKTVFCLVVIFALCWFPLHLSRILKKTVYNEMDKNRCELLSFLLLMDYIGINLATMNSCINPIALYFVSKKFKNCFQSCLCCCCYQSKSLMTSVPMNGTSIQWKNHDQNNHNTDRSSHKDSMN
Sequence of UniProt P49841 (whole entry, looked up): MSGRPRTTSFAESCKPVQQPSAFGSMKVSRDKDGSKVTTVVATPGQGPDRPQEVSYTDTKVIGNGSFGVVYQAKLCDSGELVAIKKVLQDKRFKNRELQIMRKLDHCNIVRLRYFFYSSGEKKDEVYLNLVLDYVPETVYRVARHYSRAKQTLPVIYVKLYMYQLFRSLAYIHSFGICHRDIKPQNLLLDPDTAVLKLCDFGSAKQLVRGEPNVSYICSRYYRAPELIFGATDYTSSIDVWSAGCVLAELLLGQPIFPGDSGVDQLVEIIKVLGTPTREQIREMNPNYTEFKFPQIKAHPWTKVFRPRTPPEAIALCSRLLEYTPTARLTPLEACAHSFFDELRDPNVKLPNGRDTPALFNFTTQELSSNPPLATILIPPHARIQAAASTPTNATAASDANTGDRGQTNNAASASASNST
Sequence of UniProt P78368 (whole entry, looked up): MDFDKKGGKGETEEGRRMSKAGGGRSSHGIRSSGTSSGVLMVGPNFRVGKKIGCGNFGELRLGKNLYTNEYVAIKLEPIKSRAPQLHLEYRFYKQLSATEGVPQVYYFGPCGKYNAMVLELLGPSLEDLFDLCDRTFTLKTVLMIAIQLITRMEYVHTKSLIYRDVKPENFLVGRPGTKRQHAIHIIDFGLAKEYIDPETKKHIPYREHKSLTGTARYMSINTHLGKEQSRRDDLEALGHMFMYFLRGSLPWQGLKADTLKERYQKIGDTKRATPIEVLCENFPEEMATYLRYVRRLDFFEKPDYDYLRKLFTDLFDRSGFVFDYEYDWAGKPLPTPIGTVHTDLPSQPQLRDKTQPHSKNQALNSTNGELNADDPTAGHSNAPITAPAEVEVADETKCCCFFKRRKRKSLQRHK
Sequence of UniProt P10398 (whole entry, looked up): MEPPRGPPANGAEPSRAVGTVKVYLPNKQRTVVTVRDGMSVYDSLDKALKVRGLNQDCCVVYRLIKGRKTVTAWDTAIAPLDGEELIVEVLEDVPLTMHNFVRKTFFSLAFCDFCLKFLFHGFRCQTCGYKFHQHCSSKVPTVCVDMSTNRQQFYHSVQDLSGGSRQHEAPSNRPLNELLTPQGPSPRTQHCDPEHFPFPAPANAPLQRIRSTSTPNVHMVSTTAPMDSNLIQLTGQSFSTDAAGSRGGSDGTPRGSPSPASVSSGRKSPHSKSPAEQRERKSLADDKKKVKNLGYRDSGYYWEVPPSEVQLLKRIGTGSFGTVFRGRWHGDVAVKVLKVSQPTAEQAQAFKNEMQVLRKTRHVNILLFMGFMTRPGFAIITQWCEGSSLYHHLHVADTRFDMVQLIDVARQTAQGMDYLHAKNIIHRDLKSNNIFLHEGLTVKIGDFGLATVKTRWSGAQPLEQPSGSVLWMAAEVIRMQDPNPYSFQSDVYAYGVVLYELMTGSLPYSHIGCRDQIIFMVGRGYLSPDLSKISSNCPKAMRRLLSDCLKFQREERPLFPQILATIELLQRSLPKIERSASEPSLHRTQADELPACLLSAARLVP
Sequence of UniProt O75747 (whole entry, looked up): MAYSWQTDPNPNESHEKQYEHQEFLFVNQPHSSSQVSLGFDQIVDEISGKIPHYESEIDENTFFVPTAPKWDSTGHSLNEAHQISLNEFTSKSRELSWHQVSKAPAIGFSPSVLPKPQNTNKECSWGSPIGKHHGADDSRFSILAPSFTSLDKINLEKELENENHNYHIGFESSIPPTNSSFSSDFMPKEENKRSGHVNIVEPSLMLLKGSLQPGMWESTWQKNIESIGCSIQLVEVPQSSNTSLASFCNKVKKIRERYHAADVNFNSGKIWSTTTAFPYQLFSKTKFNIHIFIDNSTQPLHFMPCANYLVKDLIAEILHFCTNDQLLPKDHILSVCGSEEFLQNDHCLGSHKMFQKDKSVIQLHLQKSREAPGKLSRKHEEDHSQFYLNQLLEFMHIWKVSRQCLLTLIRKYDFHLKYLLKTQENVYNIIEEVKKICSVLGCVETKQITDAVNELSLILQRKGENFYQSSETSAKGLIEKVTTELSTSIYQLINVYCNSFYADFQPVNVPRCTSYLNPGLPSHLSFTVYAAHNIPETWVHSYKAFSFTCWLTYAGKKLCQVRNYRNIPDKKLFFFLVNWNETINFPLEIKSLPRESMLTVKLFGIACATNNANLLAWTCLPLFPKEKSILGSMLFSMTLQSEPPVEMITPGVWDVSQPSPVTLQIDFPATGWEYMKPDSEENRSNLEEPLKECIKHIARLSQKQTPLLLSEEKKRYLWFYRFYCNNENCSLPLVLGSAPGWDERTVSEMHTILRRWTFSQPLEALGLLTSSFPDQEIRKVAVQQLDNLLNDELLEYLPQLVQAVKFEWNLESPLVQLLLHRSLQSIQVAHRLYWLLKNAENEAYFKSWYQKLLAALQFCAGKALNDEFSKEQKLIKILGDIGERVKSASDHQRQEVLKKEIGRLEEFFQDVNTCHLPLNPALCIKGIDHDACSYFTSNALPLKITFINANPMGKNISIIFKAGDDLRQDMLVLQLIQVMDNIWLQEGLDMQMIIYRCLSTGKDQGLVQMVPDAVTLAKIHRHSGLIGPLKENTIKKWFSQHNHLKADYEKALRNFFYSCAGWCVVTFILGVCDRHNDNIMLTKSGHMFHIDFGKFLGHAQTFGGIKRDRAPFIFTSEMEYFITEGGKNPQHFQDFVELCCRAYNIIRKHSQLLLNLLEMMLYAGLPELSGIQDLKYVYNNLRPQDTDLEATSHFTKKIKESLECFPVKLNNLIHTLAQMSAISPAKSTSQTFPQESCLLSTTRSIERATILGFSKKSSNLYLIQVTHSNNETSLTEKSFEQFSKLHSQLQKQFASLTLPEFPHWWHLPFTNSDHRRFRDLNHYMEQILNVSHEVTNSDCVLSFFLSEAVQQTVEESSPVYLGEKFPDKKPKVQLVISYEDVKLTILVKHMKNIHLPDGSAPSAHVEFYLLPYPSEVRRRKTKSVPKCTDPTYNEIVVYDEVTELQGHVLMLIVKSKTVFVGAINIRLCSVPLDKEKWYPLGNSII

Series 1
Cell line: A-375
Tested at: 100 µM
Time: 18 h
Structure (SMILES) | viability [%]
C/C=C1\NC(=O)[C@H]2CSSCC/C=C/[C@H](CC(=O)N[C@H](C(C)C)C(=O)N2)OC(=O)[C@H](C(C)C)NC1=O | 26.5
C/C=C(/C(=C/C)c1ccc(O)cc1)c1ccc(O)cc1 | 8.78
C[C@]12C=CC(=O)C=C1CC[C@@H]1[C@@H]2[C@@H](O)C[C@@]2(C)[C@H]1CC[C@]2(O)C(=O)COP(=O)(O)O | 99.6
CCC(Cc1c(I)cc(I)c(N)c1I)C(=O)O (stereo not drawn) | 104
COc1cccc2c1C(=O)c1c(O)c3c(c(O)c1C2=O)C[C@@](O)(C(C)=O)C[C@@H]3O[C@H]1C[C@H](N)[C@H](O)[C@H](C)O1 | 22

Series 2
Target: Diamine acetyltransferase 1 (Homo sapiens, UniProt P21673)
Mode: inhibitor
Tested at: 10 µM
Relative to: control
Target sequence (P21673 1-171): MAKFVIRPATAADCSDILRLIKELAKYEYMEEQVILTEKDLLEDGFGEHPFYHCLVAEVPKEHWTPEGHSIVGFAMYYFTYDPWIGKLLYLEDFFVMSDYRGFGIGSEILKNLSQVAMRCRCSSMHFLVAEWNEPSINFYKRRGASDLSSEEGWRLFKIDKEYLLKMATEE
SMILES | remaining activity [%]
O=c1c(-c2ccc(O)cc2)coc2cc(O)cc(O)c12 | 101
C[C@@H]1O[C@@H](O[C@H]2[C@H](Oc3cc(O)c4c(=O)cc(-c5ccc(O)cc5)oc4c3)O[C@H](CO)[C@@H](O)[C@@H]2O)[C@H](O)[C@H](O)[C@H]1O | 95
Oc1cc(O)c2c(c1)O[C@H](c1ccc(O)c(O)c1)[C@H](O)[C@H]2c1c(O)cc(O)c2c1O[C@H](c1ccc(O)c(O)c1)[C@H](O)C2 | 88.1

Series 3
Structure (SMILES): CCN(CC)CCCCN1c2ccccc2Oc2ccc(Cl)cc21
Observed: enzyme activity
Mode: inhibitor
Tested at: 0.5 µM
Relative to: control
target | remaining activity [%]
TEK (Homo sapiens, UniProt Q02763) | 103
FGFR1 (Homo sapiens, UniProt P11362) | 105
MERTK (Homo sapiens, UniProt Q12866) | 95.5
MAPKAPK2 (Homo sapiens, UniProt P49137) | 97.2
ARAF (Homo sapiens, UniProt P10398) | 103
ACVR1B (Homo sapiens, UniProt P36896) | 105
GSK3B (Homo sapiens, UniProt P49841) | 113
JAK3 (Homo sapiens, UniProt P52333) | 106
CSNK1G3 (Homo sapiens, UniProt Q9Y6M4) | 78.3
GRK7 (Homo sapiens, UniProt Q8WTQ7) | 96.2
NEK1 (Homo sapiens, UniProt Q96PY6) | 101
TAOK2 (Homo sapiens, UniProt Q9UL54) | 95.3
CSNK1G2 (Homo sapiens, UniProt P78368) | 103
EPHA3 (Homo sapiens, UniProt P29320) | 101

Series 4
SMILES: O=C(NC[C@@H]1[C@H]2CN(C(=O)OCc3cc(C(F)(F)F)cc(C(F)(F)F)c3)C[C@@H]12)c1ccc2[nH]nnc2c1
Observed: cell-free assay
Technique: competition with immobilised ligand
Tested at: 1 µM
target | remaining binding [%]
PIK3C2G (Homo sapiens, UniProt O75747) | 100
Mast/stem cell growth factor receptor Kit, autoinhibited (KIT, Homo sapiens, UniProt P10721) | 90
TGFBR1 (Homo sapiens, UniProt P36897) | 97
DYRK2 (Homo sapiens, UniProt Q92630) | 77
STK32B (Homo sapiens, UniProt Q9NY57) | 100

Series 5
SMILES: N=C(N)NC(=O)c1cnn(-c2cccc3ncccc23)c1C1CC1
Observed: β-arrestin recruitment
Mode: agonist
Technique: PRESTO-Tango
Tested at: 10 µM
Relative to: untreated
target | fold over basal
EDNRA (Homo sapiens, UniProt P25101) | 1.31
FFAR3 (Homo sapiens, UniProt O14843) | 1.03 fold
G-protein coupled receptor 182 (GPR182, Homo sapiens, UniProt O15218) | 0.99

Excerpt of the above (series 1):
Structure (SMILES) | viability [%]
C/C=C1\NC(=O)[C@H]2CSSCC/C=C/[C@H](CC(=O)N[C@H](C(C)C)C(=O)N2)OC(=O)[C@H](C(C)C)NC1=O | 26.5
C/C=C(/C(=C/C)c1ccc(O)cc1)c1ccc(O)cc1 | 8.78
C[C@]12C=CC(=O)C=C1CC[C@@H]1[C@@H]2[C@@H](O)C[C@@]2(C)[C@H]1CC[C@]2(O)C(=O)COP(=O)(O)O | 99.6
CCC(Cc1c(I)cc(I)c(N)c1I)C(=O)O (stereo not drawn) | 104
COc1cccc2c1C(=O)c1c(O)c3c(c(O)c1C2=O)C[C@@](O)(C(C)=O)C[C@@H]3O[C@H]1C[C@H](N)[C@H](O)[C@H](C)O1 | 22
